Measurements gathered from unrelated publications.
Numbered parts are unrelated; each lists some results of a single study.

Sample 1 — method: RNA Bind-n-Seq; molecule type: RNA; sample: in vitro; concentration: 200 nM; setting: whole 134-nt RNA, ends assumed; with: 150 mM KCl; baseline: input library; reading: higher = stronger binding
Target: Ras GTPase-activating protein-binding protein 1, full length (G3BP1, Homo sapiens, UniProt Q13283)
Sequence of UniProt Q13283 (whole entry, looked up): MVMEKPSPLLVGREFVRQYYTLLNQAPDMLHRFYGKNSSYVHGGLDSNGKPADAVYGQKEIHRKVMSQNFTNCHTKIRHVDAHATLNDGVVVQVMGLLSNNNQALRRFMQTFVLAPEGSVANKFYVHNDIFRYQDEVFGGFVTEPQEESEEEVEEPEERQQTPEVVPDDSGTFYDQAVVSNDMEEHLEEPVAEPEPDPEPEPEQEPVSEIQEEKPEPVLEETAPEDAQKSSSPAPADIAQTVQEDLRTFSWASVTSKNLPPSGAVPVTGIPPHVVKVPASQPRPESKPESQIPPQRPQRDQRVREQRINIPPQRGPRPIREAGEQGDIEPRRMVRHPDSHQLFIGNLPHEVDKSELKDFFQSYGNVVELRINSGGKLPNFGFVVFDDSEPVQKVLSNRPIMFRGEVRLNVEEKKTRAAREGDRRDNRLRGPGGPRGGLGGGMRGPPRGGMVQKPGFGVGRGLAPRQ
Strand	log2 enrichment
GGGAGUUCUACAGUCCGACGAUCCAAGUCCUGUGCUACACAUCGUAUGUACCGAAUCGGAAAAAAAGGAGGUUUUUGGAAAGUAUUAUGUUACGCCGUUCGGAUCUGCACUUCUGGAAUUCUCGGGUGUCAAGG	-1.06
GGGAGUUCUACAGUCCGACGAUCUCCUGUGCUACACAUCGUAUGUACCGAAUCGGGGUUUUUUUGGGGUGGGGAAAAAGGGGAAAGUAUUAUGUUACGCCGUUCGGAUCUGCAUGGAAUUCUCGGGUGUCAAGG	0.535
GGGAGUUCUACAGUCCGACGAUCGUCCUGUGCUACACAUCGUAUGUACCGAAUCGGCCCCCGGCCCCCGGGGCCCCCGGGGAAAGUAUUAUGUUACGCCGUUCGGAUCUGCACUGGAAUUCUCGGGUGUCAAGG	-0.615
GGGAGUUCUACAGUCCGACGAUCUGUGCUACACAUCGUAUGUACCGAAUCGGGGUUUUUUUGGGUUUUUUUGGGGUUUUUUUGGGAAAGUAUUAUGUUACGCCGUUCGGAUCUUGGAAUUCUCGGGUGUCAAGG	-0.759

Sample 2 — method: RNA Bind-n-Seq; molecule type: RNA; sample: in vitro; concentration: 365 nM; baseline: no-protein control; reading: higher = stronger binding
Target: RNA binding protein fox-1 homolog 2, RRM domain, GST-SBP tag (RBFOX2, Homo sapiens, UniProt O43251-10, residues 100-194)
Setting: natural RNA segment, single round, ends assumed
Shared flanks, not repeated: GGGAGUUCUACAGUCCGACGAUC … UGGAAUUCUCGGGUGCCAA
Residues (chain): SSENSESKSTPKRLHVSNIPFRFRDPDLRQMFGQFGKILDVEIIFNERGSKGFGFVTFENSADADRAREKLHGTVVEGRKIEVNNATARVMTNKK
Strand	RBNS enrichment (R)
GUGACUCUGGUUGGCAAGGGUGAGCUGUGCUUGGCCAGGAAGGUGGCAUUAAAGGCUGUGCUCACGUGACAAGAGUGCCUUUGAGCUGUAAUGACCAGUGUUUAGAGUCC	0.881
GAAGAGGAAAAGUCCAACUCCUUAGGGAGUCUGAGCCUGGCACGGGCUUGGGGAAAGAAGGCUGCAGGCAGCCUGCCGUCUAGGCAUCACUUUAUUUUUUAUCCUCCAGA	0.359
UGUGUCCACAUCUAACAAAGUCAAGAUUCCCGGCUGGACUUUUGCAGCUUCCUUCCAAGUCUUCCUGACCACCUUGCACUAUUGGACUUUGGAAGGAGGUGCCUAUAGAA	0.879
GUGUCAUGCUGCUGCUGUGAUCUUCAGCCUGCCUUGCCUGGAAACAUGGCAAAGACAAUGCUGACACCACUCCACUGUGAGAGCAUAGUCUGGGGACACUGACUCAGCGA	0.215
CCGUCCUGCCCCUGCUGUCAGAGAUUUUUUUCUCCAGAGAGGUGCCUGUCCUGUGCUUGGAUAGUCAGUUGGUUAUUUGUGUAUGAAACAAUGUACAAAUCAAUGUUUUG	0.474
CAACUGUCCUAAGGUCACUUCCCAGCCAGCUUAGGAUCUUCAGCAUUUUUAAGAGCUGAAGCUCCCUCUUGCCCUUCUUGUCUACUCCUCACUGCCAGUUGGGGCCUAGG	0.636
UGCGCUGACCGCUGCAUGGUGUCGUGACCUGGGCCUCAUUUGUAGCUGCACUGCCUUUCCUUGUCUGCAAAGUUGGUUUUGUCCACUCUGACCAAGACCUCUAGUUUUUG	0.636

Sample 3 — method: protein binding microarray; molecule type: double-stranded DNA, one strand shown; sample: in vitro; concentration: not given; baseline: not given; reading: higher = stronger binding
Target: Histone acetyltransferase KAT6A, both winged helices, GST fusion (KAT6A, Homo sapiens, UniProt Q92794, residues 1-181)
Setting: 8-mer, flanks averaged, mean of 2 arrays, mostly near background
Target sequence (chain): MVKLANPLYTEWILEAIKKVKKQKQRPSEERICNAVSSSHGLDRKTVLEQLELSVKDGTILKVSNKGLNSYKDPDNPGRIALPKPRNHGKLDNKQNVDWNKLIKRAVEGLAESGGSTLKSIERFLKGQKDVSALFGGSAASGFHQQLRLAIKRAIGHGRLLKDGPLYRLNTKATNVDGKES
Strand	E-score
GCTTCGCA	0.0606
CCGATCAC	0.122
AGCTCTCC	-0.168
GGAGCTGA	-0.136
GTTGTCCA	-0.0681
AGTATCCA	-0.17
GTTTAGTA	-0.0152

Other studies, line by line
Substance	target	assay	system	conditions	scale	endpoint	value
PhoQ, residues 284 288 289 292 302 303 SLANKL	PhoP, residues 12 14 15 18 19 LWHCS (Escherichia coli, UniProt P23836)	Sort-seq, item: YFP reporter	E. coli	PhoQ-PhoP variant library, with: 10 µM Mg2+	baseline: high Mg2+ state, higher = stronger signaling	fold induction	0.677

For quick reference, copied from above (sample 1):
Strand	log2 enrichment
GGGAGUUCUACAGUCCGACGAUCGUCCUGUGCUACACAUCGUAUGUACCGAAUCGGCCCCCGGCCCCCGGGGCCCCCGGGGAAAGUAUUAUGUUACGCCGUUCGGAUCUGCACUGGAAUUCUCGGGUGUCAAGG	-0.615
GGGAGUUCUACAGUCCGACGAUCUGUGCUACACAUCGUAUGUACCGAAUCGGGGUUUUUUUGGGUUUUUUUGGGGUUUUUUUGGGAAAGUAUUAUGUUACGCCGUUCGGAUCUUGGAAUUCUCGGGUGUCAAGG	-0.759
